Assay results of several laboratories.
± marks the error that the study gave.

COc1cc2ncnc(Nc3ccc(F)c(Cl)c3)c2cc1OCCCN1CCOCC1 — Tmax (human, plasma; oral, 250 mg, median, added: vorinostat 400 mg): 4.1 h
Nc1ccc(-c2nc([C@H]3CCc4cc(-c5cc(Cl)ccc5-n5cnnn5)cc(=O)n43)c(F)[nH]2)c(F)n1 — Tmax (human, plasma; oral, day 14, multiple dosing, final dose): 4 to 6 h
CCn1c(C(=O)c2cc(C)cc(C#N)c2)c(C(C)C)c(=O)[nH]c1=O — Tmax (healthy humans, plasma; oral, 75 mg once daily, 7 days, median): 1.3 h
CNCc1ccc(-c2[nH]c3cc(F)cc4c3c2CCNC4=O)cc1 — Tmax (human; oral, 300 mg once daily, day 15, steady state, median): 2.53 h
O=C(NC[C@H](O)CO)c1ccncc1Nc1ccc(I)cc1F — Tmax (human patients, plasma; oral, 60 mg single dose, day 8, median): 1.25 h
COC(=O)[C@H](c1ccccc1Cl)N1CCC(S)/C(=C\C(=O)O)C1 (some centres unmarked) — Tmax (human patients, CYP3A4 wt/wt, plasma; oral, 75 mg clopidogrel daily, day 7, median): 1 h
COc1cc2c(cc1OC)[C@H]1CC(=O)[C@H](CC(C)C)CN1CC2 (racemic) — Tmax (human CYP2D6 extensive metabolizers, plasma; oral, 25 mg, fasted, median): 0.67 h
O=C([O-])CCCCCCCNC(=O)c1ccccc1O.[Na+] — Tmax (human, normal hepatic function, plasma; oral, day 10, median): 0.49 h
CC(=O)c1c(C)c2cnc(Nc3ccc(N4CCNCC4)cn3)nc2n(C2CCCC2)c1=O — Tmax (human; oral, 50 mg/m^2 repeated doses, day 21): 5.3 ± 2 h
CCCC[C@H](NC(C)=O)C(=O)N[C@H]1CC(=O)NCCCC[C@@H](C(=O)O)NC(=O)[C@H](Cc2c[nH]c3ccccc23)NC(=O)[C@H](CCCN=C(N)N)NC(=O)[C@@H](Cc2ccccc2)NC(=O)[C@H](Cc2cnc[nH]2)NC1=O — Tmax (human, plasma; subcutaneous, 1.25 mg, second dose): 0.53 h
Nc1ncc(-c2cnn(CCO)c2)c2scc(-c3ccc(NC(=O)Nc4cccc(F)c4)cc3)c12 — Tmax (human patients, plasma; oral, 690 mg once weekly, first dose): 3 h
Cc1[nH]c(/C=C2\C(=O)Nc3ccc(F)cc32)c(C)c1C(=O)N[C@H]1CCN(C(=O)N(C)C)C1 — Tmax (human, plasma; oral, 200 mg once daily multiple dosing, median, added: everolimus 5 mg): 2.02 h
CCS(=O)(=O)N1CC(CC#N)(n2cc(-c3ncnc4[nH]ccc34)cn2)C1 — Tmax (healthy Chinese human, plasma; oral, once daily, 2 to 10 mg, day 10): 0.5 to 1 h
CNC(=O)c1ccccc1Sc1ccc2c(/C=C/c3ccccn3)n[nH]c2c1 — Tmax (human, fed, plasma; oral, 10 mg single dose, median): 4.02 h
CNCc1ccc(-c2[nH]c3cc(F)cc4c3c2CCNC4=O)cc1 — Tmax (human patients, female; oral, 600 mg twice daily, range): 1.7 to 5 h
C=C(C)[C@@H]1CC[C@]2(NCCN3CCS(=O)(=O)CC3)CC[C@]3(C)[C@H](CC[C@@H]4[C@@]5(C)CC=C(C6=CC[C@@](CF)(C(=O)O)CC6)C(C)(C)[C@@H]5CC[C@]43C)[C@@H]12 — Tmax (human; oral, 100 mg once daily, day 14, multiple ascending dose): 4 h
O=S1(=O)c2ccc(F)cc2Oc2cc(OCC(F)(F)F)ccc21 — Tmax (human, male, plasma; oral): 0.5 h
Cc1cccc(Cn2nc(C3CC3)c3c(NC(=O)c4cnc5cc(OCCN6CCN(C)CC6)ccn45)cccc32)n1 — Tmax (human patients Overall, plasma; oral, 300 mg, cycle 1 day 1, median): 2 h
COc1cccc(-c2ccc(NC(=O)C3=C(C(=O)O)CCC3)c(F)c2)c1 — Tmax (male humans, plasma; oral, 30 to 50 mg once daily, day 0, mean profiles): 3 to 4 h
CC(C)NC[C@@H](C(=O)N1CCN(c2ncnc3c2[C@H](C)C[C@H]3O)CC1)c1ccc(Cl)cc1 — Tmax (human, Mild hepatic function, plasma; oral, 100 mg single dose, NCI classification, median): 1 h
CC(=O)N[C@H]1CC[C@H](NC(=O)CN2CCN(c3nncc(-c4ccc(C)cc4)n3)CC2)CC1 — Tmax (human, plasma; oral, 120 mg once daily, day 1, fed, median): 3 h
Cc1ccc(NC(=O)c2ccc(CN3CCN(C)CC3)cc2)cc1Nc1nccc(-c2cncc(-c3oncc3C)c2)n1 — Tmax (older healthy human adults, plasma; oral, 37.5 mg single dose, fed, mean): 5.67 h
CC#CC(=O)NCCCC(=O)c1nc(-c2ccc(C(=O)Nc3ccccn3)cc2)c2c(N)nccn12 — Tmax (human, severe hepatic impairment, plasma; oral, 50 mg acalabrutinib, single, median): 0.8 h
Cn1ncc(Cl)c1-c1cc(C(=O)N[C@H](CN)Cc2ccc(F)c(F)c2)oc1Cl — Tmax (human patients, plasma; oral, 20 mg, single dose, fasting): 3.13 h
CC(C)[C@H](N)C(=O)NCCCS(=O)(=O)O — Tmax (human, plasma; oral, 340 mg capsule, day 14, fasted, multiple dosing): 0.629 ± 0.229 h
COc1ccnc(C[S+]([O-])c2nc3ccc(OC(F)F)cc3[nH]2)c1OC (centres unmarked) — Tmax (HPLC; human CYP2C19 poor metabolizers, plasma; oral, 40 mg/day, day 1, esomeprazole): 4.67 ± 1.15 h
C[C@H]1[C@H](F)C[C@@H](C(=O)NCc2cc(-c3cnc(C(F)(F)F)nc3)ncc2C(F)(F)F)N1S(=O)(=O)c1ccc(F)cc1 — Tmax (healthy human volunteers, fasted, plasma; oral, 25 to 600 mg single dose, range over doses): 1.5 to 24 h
CCOC(=O)C1=C[C@@H](OC(CC)CC)[C@H](NC(C)=O)[C@@H](N)C1 — Tmax (healthy Indian human, plasma; oral, 75 mg single, test capsule fed): 2.69 ± 0.96 h
O=C(Cc1cccc(OC(F)(F)F)c1)Nc1ccc(CCCCc2nnc(NC(=O)Cc3ccccn3)s2)nn1 — Tmax (human; oral, 1000 mg twice daily, fed, steady state, cycle 1 day 15): 6.08 h
Cc1cc(-c2nnc(N)nc2-c2ccc(F)cc2)cc(Cl)n1 — Tmax (human patients, plasma; oral, single dose): 0.5 to 2 h
C#C[C@]1(CO)O[C@@H](n2cnc3c(N)nc(F)nc32)C[C@@H]1O — Tmax (human, plasma; oral, 100 mg once weekly, week 3): 1 h
CN1C(=O)[C@@H](NC(=O)c2nnc(Cc3ccccc3)[nH]2)COc2ccccc21 — Tmax (human male, plasma; oral, 120 mg twice daily, day 14): 2 h
O=c1[nH]c(=O)c(Cc2cccc(C(F)(F)F)c2)c([C@H]2CC[C@H](c3ccccc3)CC2)[nH]1 — Tmax (human, fasted, plasma; oral, 100 mg single dose, median): 2.01 h
COc1ccc2nc([S@@+]([O-])Cc3ncc(C)c(OC)c3C)[nH]c2c1 — Tmax (HPLC; human CYP2C19 normal metabolizers, plasma; oral, 40 mg/day, day 1, pantoprazole): 6 ± 8 h
CC[C@H](C)[C@@H]1NC(=O)[C@H](CCCNC(=N)N)NC(=O)[C@H](CC(=O)O)NC(=O)[C@H](CC(C)C)NC(=O)[C@H](CCCCN)NC(=O)[C@H](CC(C)C)NC(=O)CNC(=O)[C@H](Cc2ccccc2)NC(=O)[C@@H](NC(=O)CNC(=O)[C@H](CCCCN)NC(=O)[C@H](CO)NC(=O)[C@H](CC(C)C)NC(=O)CNC(=O)[C@H](CCCCN)NC(=O)[C@H](CCCCN)NC(=O)[C@H](CC(N)=O)NC(=O)[C@H](C)NC(=O)CNC(=O)[C@H](CCCCN)NC(=O)[C@H](Cc2ccc(O)cc2)NC(=O)[C@H](CCCCN)NC(=O)[C@H](CCCNC(=N)N)NC(=O)[C@H](C)NC(=O)[C@H](CC(N)=O)NC(=O)[C@@H]2CCCN2C(=O)[C@H](Cc2c[nH]cn2)NC(=O)[C@H](CCC(=O)O)NC(=O)[C@H](CCC(N)=O)NC(=O)CNC(=O)[C@@H]2CCCN2)CSSC[C@@H](C(=O)O)NC(=O)CNC(=O)[C@H](CC(C)C)NC(=O)CNC(=O)[C@H](CO)NC(=O)[C@H](CCSC)NC(=O)[C@H](CO)NC(=O)CNC1=O — Tmax (ECLA; human, plasma; subcutaneous, 15 µg/kg once daily, week 26): 0.242 h
Nc1ccn([C@@H]2O[C@H](CO)[C@@H](O)C2(F)F)c(=O)n1 — Tmax (human cancer patients, plasma; intravenous, 1000 mg/m^2, cycle 1 day 1, given alone, median): 0.5 h
CO[C@H]1C[C@@H]2CC[C@@H](C)[C@@](O)(O2)C(=O)C(=O)N2CCCC[C@H]2C(=O)O[C@H]([C@H](C)C[C@@H]2CC[C@@H](OCCO)[C@H](OC)C2)CC(=O)[C@H](C)/C=C(\C)[C@@H](O)[C@@H](OC)C(=O)[C@H](C)C[C@H](C)/C=C/C=C/C=C/1C — Tmax (healthy adult human, blood; 0.75 mg single dose, median, compound alone): 2 h
CS(=O)(=O)n1cc2c(n1)CN([C@H]1CO[C@H](c3cc(F)ccc3F)[C@@H](N)C1)C2 — Tmax (healthy male human, plasma; oral, 25 mg once weekly, day 1, fasted, median): 1 h

Excerpt of the above:
Nc1ccc(-c2nc([C@H]3CCc4cc(-c5cc(Cl)ccc5-n5cnnn5)cc(=O)n43)c(F)[nH]2)c(F)n1 — Tmax (human, plasma; oral, day 14, multiple dosing, final dose): 4 to 6 h
CCn1c(C(=O)c2cc(C)cc(C#N)c2)c(C(C)C)c(=O)[nH]c1=O — Tmax (healthy humans, plasma; oral, 75 mg once daily, 7 days, median): 1.3 h
CNCc1ccc(-c2[nH]c3cc(F)cc4c3c2CCNC4=O)cc1 — Tmax (human; oral, 300 mg once daily, day 15, steady state, median): 2.53 h
O=C(NC[C@H](O)CO)c1ccncc1Nc1ccc(I)cc1F — Tmax (human patients, plasma; oral, 60 mg single dose, day 8, median): 1.25 h
COC(=O)[C@H](c1ccccc1Cl)N1CCC(S)/C(=C\C(=O)O)C1 (some centres unmarked) — Tmax (human patients, CYP3A4 wt/wt, plasma; oral, 75 mg clopidogrel daily, day 7, median): 1 h
COc1cc2c(cc1OC)[C@H]1CC(=O)[C@H](CC(C)C)CN1CC2 (racemic) — Tmax (human CYP2D6 extensive metabolizers, plasma; oral, 25 mg, fasted, median): 0.67 h
